Measurements collected from several papers.
Lines come from different studies, so protocols differ. “And” joins repeats or separate records; there may be more than shown. ± marks the error that the study gave.
spsB: Signal peptidase IB (spsB, Staphylococcus aureus, UniProt Q5HHB9)
CAMKK2: Calcium/calmodulin-dependent protein kinase kinase 2 (CAMKK2, Homo sapiens, UniProt Q96RR4)
TRPM8: Transient receptor potential cation channel subfamily M member 8 (TRPM8, Homo sapiens, UniProt Q7Z2W7)
LCK: Tyrosine-protein kinase Lck (LCK, Homo sapiens, UniProt P06239)

`CNC(=O)c1ccc(NC(=O)Nc2ccc(Cl)c(C(F)(F)F)c2)cc1` has a remaining activity of 198% (spsB; peptidase activity, activator, FRET peptide cleavage; Staphylococcus aureus, membranes; 100 µM; relative to: DMSO).
The remaining activity of `O=C(O)c1ccc(Nc2ncc3c(n2)-c2ccc(Cl)cc2C(c2c(F)cccc2F)=NC3)cc1` is reported as 115% (ALK4(h); kinase activity; 1 µM).
`COc1cc(-c2cncc3c2CN(C)Cc2cc(N4CCNCC4)ccc2-3)cc(OC)c1OC` has a remaining activity of 101% (PLK3 (Homo sapiens, UniProt Q9H4B4); kinase activity; 1 µM, human enzyme, with: ATP 10 µM; relative to: DMSO control).
With `O=C1NC(=O)/C(=C/c2ccc(-c3ccc(F)cc3O)o2)S1` the remaining activity was 51% (CAMKK2; enzyme activity; 10 µM).
`COc1cc(OC)c(/C=C2/C(=O)Nc3ccccc32)c(OC)c1` has a remaining activity of 46.9 ± 8.32% (TRPM8; antagonist; HEK293; 5 µM).
`O=C(Nc1ccc(Cl)c(C(F)(F)F)c1)Nc1ccc2ccccc2c1` gave a remaining activity of 147% (spsB; peptidase activity, activator, FRET peptide cleavage; Staphylococcus aureus, membranes; 100 µM; relative to: DMSO).
`COc1cc(Nc2ncc3c(n2)-c2ccc(Cl)cc2C(c2c(F)cccc2OC)=NC3)ccc1C(=O)O` gave a remaining activity of 6% (EPHA4; kinase activity; 1 µM).
The remaining activity of `Cc1cccc(C)c1NC(=O)Nc1ccc(Cl)c(C(F)(F)F)c1` is reported as 106% (spsB; peptidase activity, activator, FRET peptide cleavage; Staphylococcus aureus, membranes; 50 µM; relative to: DMSO).
The remaining activity of `CCN(CCO)CCCC(C)Nc1ccnc2cc(Cl)ccc12` (centres unmarked) is reported as 96.4% (Potassium voltage-gated channel subfamily KQT member 1, with KCNE1 (KCNQ1, Homo sapiens, UniProt P51787); IKs current, patch clamp; HEK293; 30 µM; relative to: pre-drug current).
The remaining activity of `COc1ccc(CNC(=O)Nc2ncc([N+](=O)[O-])s2)cc1` is reported as 95.9 ± 10.8% (TRPM8; antagonist; HEK293; 5 µM; relative to: control).
The remaining activity of `CCOc1cc(N2CCN(C)CC2)ccc1Nc1nc(N)n(C(=O)NCc2ccccc2S(=O)(=O)C(C)C)n1` is reported as 14% (ERN1 (Homo sapiens, UniProt O75460); enzyme activity; 10 µM; relative to: control).
For `Ic1cccc(CSc2nnc(-c3ccncc3)o2)c1`, the remaining activity was 93.8 ± 3.84% (TRPM8; antagonist; HEK293; 5 µM; relative to: control).
For `O=C(Nc1ccc(N2CCOCC2)cc1)Nc1ccc(Cl)c(C(F)(F)F)c1`, the remaining activity was 102% (spsB; peptidase activity, activator, FRET peptide cleavage; Staphylococcus aureus, membranes; 10 µM; relative to: DMSO).
`C=CC(=O)N1CCC[C@@H](n2nc(-c3ccc(Oc4ccccc4)cc3)c3c(N)ncnc32)C1` gave a remaining activity of 73.4% (LCK; 1 µM).
For `c1ccc2c(-c3ccncc3)c[nH]c2c1`, the remaining activity was 80.8 ± 12.5% (TRPM8; antagonist; HEK293; 5 µM; relative to: control).
With `O=C(Nc1ccc(Cl)c(C(F)(F)F)c1)N1CCC(F)(F)CC1` the remaining activity was 125% (spsB; peptidase activity, activator, FRET peptide cleavage; Staphylococcus aureus, membranes; 50 µM; relative to: DMSO).
`CCc1noc(CSc2nnc(COc3ccccc3-c3ccccc3)n2CCOC)n1` has a remaining activity of 0.26% and -0.21% (CXCR4 (Homo sapiens, UniProt P61073); arrestin recruitment, antagonist, DiscoverX arrestin; 30 µM; relative to: untreated).
For `NC/C(=C\F)COc1cccc(Cn2c(=S)[nH]c(=O)c3[nH]cnc32)c1`, the remaining activity was 99.8% (Peroxidasin homolog (PXDN, Homo sapiens, UniProt Q92626); Amplex UltraRed; 0.625 µM; relative to: control).
The remaining activity of `C=CC(=O)N1CCC([C@@H]2CCNc3c(C(N)=O)c(-c4ccc(Oc5ccccc5)cc4)nn32)CC1` is reported as 76.9 ± 1.7% (CAMKK2; kinase activity, inhibitor, HotSpot radiometric; 100 nM, with: ATP 10 µM).
The remaining activity of `O=C(c1ccccc1)c1ccc(N2CCOCC2)cc1O` is reported as 81.2 ± 6.95% (TRPM8; antagonist; HEK293; 5 µM; relative to: control).
The remaining activity of `c1cnc2ccc(Nc3nc(NC4CC4)c4nc[nH]c4n3)cc2c1` is reported as 103% (AKT2 (Homo sapiens, UniProt P31751); kinase activity, inhibitor, SelectScreen kinase profiling; 1 µM; relative to: control).
For `O=C(NC1CCC1)c1ccc2nc(-c3cccc(NS(=O)(=O)NCCN4CCCCC4)c3)cn2c1`, the remaining activity was 90% (MAP3K12 (Homo sapiens, UniProt Q12852); enzyme activity; 10 µM).
For `Cc1cc(Nc2cc(N3CCN(C)CC3)nc(Sc3ccc(NC(=O)C4CC4)cc3)n2)[nH]n1`, the remaining activity was 108% (WNK3 (Homo sapiens, UniProt Q9BYP7); kinase activity, KinaseProfiler; 0.03 µM, species human; relative to: control).
With `COc1ccc(F)cc1C(=O)NCc1ccc(-c2nn([C@@H](C)C(F)(F)F)c(N)c2C(N)=O)cc1` the remaining activity was 86 ± 3.4% (CAMKK2; kinase activity, inhibitor, HotSpot radiometric; 1000 nM, with: ATP at Km).
`CCCCNC(=O)c1ccc(NC(=O)Nc2ccc(Cl)c(C(F)(F)F)c2)cc1` has a remaining activity of 154% (spsB; peptidase activity, activator, FRET peptide cleavage; Staphylococcus aureus, membranes; 100 µM; relative to: DMSO).
`O=C1Cc2c([nH]c3ccc(Br)cc23)-c2ccccc2N1` gave a remaining activity of 87.7 ± 2.17% (TRPM8; antagonist; HEK293; 5 µM; relative to: control).
`O=C(Nc1cccc(C(F)(F)F)c1)Nc1ccc2c(c1)OC(F)(F)O2` gave a remaining activity of 172% (spsB; peptidase activity, activator, FRET peptide cleavage; Staphylococcus aureus, membranes; 100 µM; relative to: DMSO).
With `COc1cc(N2CCN(C)CC2)ccc1Nc1nc(N)n(C(=S)NCc2c(Cl)cccc2Cl)n1` the remaining activity was 34% (CSNK1A1L (Homo sapiens, UniProt Q8N752); enzyme activity; 10 µM; relative to: control).
For `CC#CC(=O)N1CCC[C@H]1c1nc(-c2ccc(C(=O)Nc3ccccn3)cc2)c2c(N)nccn12`, the remaining activity was 91.2 ± 1.7% (TNIK (Homo sapiens, UniProt Q9UKE5); kinase activity, inhibitor, HotSpot radiometric; 100 nM, with: ATP 10 µM).
`CNc1ncc2c(/C=C/C(=O)N3CCC(OC)CC3)nn(Cc3cccc(C(F)(F)F)c3)c2n1` has a remaining activity of 87% (FLT3 (Homo sapiens, UniProt P36888); kinase activity, inhibitor; 1 µM; relative to: untreated control).
For `C=CC(=O)N1CCC[C@@H](n2nc(-c3ccc(Oc4ccccc4)cc3)c3c(N)ncnc32)C1`, the remaining activity was 9.5 ± 0.4% (LCK; kinase activity, inhibitor, HotSpot radiometric; 100 nM, with: ATP 10 µM).
`CC[n+]1c(/C=C/N(C)c2ccccc2)n(-c2ccccc2)c2ccc(-c3nc4ccccc4s3)cc21` has a remaining activity of 42 ± 5.16% (TRPM8; antagonist; HEK293; 5 µM; relative to: control).
`COc1cc(F)ccc1-c1ncnc(Nc2cccc(C[S@](C)(=N)=O)c2)n1` has a remaining activity of 97% (PRKCG (Homo sapiens, UniProt P05129); kinase activity; 10 µM, with: 10 µM ATP).
For `CCN1/C(=C/C(C)=O)Sc2ccc(OC)cc21`, the remaining activity was 106 ± 9.1% (TRPM8; antagonist; HEK293; 5 µM; relative to: control).
`O=C(Cc1ccc(Cl)c(C(F)(F)F)c1)Nc1ccc2c(c1)OC(F)(F)O2` has a remaining activity of 130% (spsB; peptidase activity, activator, FRET peptide cleavage; Staphylococcus aureus, membranes; 100 µM; relative to: DMSO).

Some of these lines once more:
`COc1cc(F)ccc1-c1ncnc(Nc2cccc(C[S@](C)(=N)=O)c2)n1` has a remaining activity of 97% (PRKCG (Homo sapiens, UniProt P05129); kinase activity; 10 µM, with: 10 µM ATP).
`CCc1noc(CSc2nnc(COc3ccccc3-c3ccccc3)n2CCOC)n1` has a remaining activity of 0.26% and -0.21% (CXCR4 (Homo sapiens, UniProt P61073); arrestin recruitment, antagonist, DiscoverX arrestin; 30 µM; relative to: untreated).
